# Published values gathered from unrelated publications.
# Every numbered part comes from another study and shows a few of its results, in no order.

# Block 1
# Target: Histone acetyltransferase KAT6A, both winged helices, GST fusion (KAT6A, Homo sapiens, UniProt Q92794, residues 1-181)
# Technique: protein binding microarray
# Molecule type: double-stranded DNA, one strand shown
# Matrix: in vitro
# Tested at: not given
# Notes: 8-mer, flanks averaged, mean of 2 arrays, mostly near background
# Baseline: not given
# Reading: higher = stronger binding
# Target sequence (chain): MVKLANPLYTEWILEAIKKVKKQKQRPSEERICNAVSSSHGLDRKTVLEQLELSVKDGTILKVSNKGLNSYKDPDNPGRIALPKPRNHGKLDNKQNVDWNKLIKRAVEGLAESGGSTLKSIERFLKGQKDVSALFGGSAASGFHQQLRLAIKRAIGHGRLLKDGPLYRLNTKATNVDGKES
Strand,E-score
CCGTAGGC,0.227
GGGCCGGA,0.0268
CCAGAGCA,-0.126
ACTCCAGC,-0.132
AATGGATG,-0.169
TGGAATAA,-0.1

# Block 2
# Target: Prothrombin, mature alpha-thrombin (F2, Homo sapiens, UniProt P00734)
# Technique: aptamer microarray, sandwich
# Molecule type: DNA with 2'F-ANA
# Matrix: in vitro
# Tested at: 200 nM
# Notes: whole 15-mer aptamer, many near background
# Added: Cy3 exosite-II aptamer, 400 nM
# Reading: higher = stronger binding
# Strand: GGTTGGTGTGGTTGG
Modification,mean fluorescence intensity [a.u.]
2'F-ANA at 1 8 9 10 11 12,68.3
2'F-ANA at 1 3 4 7 8 9 11 13 15,154
2'F-ANA at 3 5 6 7 11 12 13 14,56.1
2'F-ANA at 1 2 3 4 5 6 7 8 9,76
2'F-ANA at 4 5 6 7 11 12 13 15,72.7
2'F-ANA at 2 4 7 8 14 15,136
2'F-ANA at 2 5 6 8 10 13 15,82

# Block 3
# Target: RNA binding protein fox-1 homolog 2, RRM domain, GST-SBP tag (RBFOX2, Homo sapiens, UniProt O43251-10, residues 100-194)
# Technique: RNA Bind-n-Seq
# Molecule type: RNA
# Matrix: in vitro
# Tested at: 365 nM
# Notes: natural RNA segment, single round, ends assumed
# Baseline: no-protein control
# Reading: higher = stronger binding
# All sequences stand within: GGGAGUUCUACAGUCCGACGAUC … UGGAAUUCUCGGGUGCCAA
# Construct (chain): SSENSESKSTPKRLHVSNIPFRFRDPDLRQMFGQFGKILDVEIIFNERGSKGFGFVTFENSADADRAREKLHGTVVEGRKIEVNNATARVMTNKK
Strand,RBNS enrichment (R)
UUUUGUGAGUAUUGCCUAUUAAGUAAACAACAUCCCUCAUUUUUAAUCCAAAUAUCAAUUUGACAGAAUAACAAGGGUCAGAAAUUCAAAAUAGCUGUUAGACACCUUUG,0.294
CUACUGACCCGUGCCCCCGGCCACCUCGGUUUCUGCUUUCGAAGACUCUGCUGCCAUCCGUUCUCCCAGUCCCAAGGGUCCACGAUGUACAAAGUCAUUUCGGCCAGUAG,0.371
CUGUGGUAUGUGUGUUCUCACGUGUGUGUGCACAUACACACACACACGCAUAUCAAUUAAUUUAAAAAGCGAAUAAAUGUAAAUUAUAAAAAGAGUCCUACCCCCCUCUU,0.634
GAGAUUGUAAAAUGGAAAAAGAAUCGUUUUUUUGUUGACUUUUUGAUGCUGGCACGAGGUUUUUGUCCACUUUUUUCAUAUAUCUGUGUAUAAAAAAAUUGUUGUUUACU,0.76
AAAAAUCAUGUUAUUUUUUUUUAAGACACACACAAAAAGAUACUUAAAGACCAAAAACUGUGCUGGGAAGAUAUGCCCCACCUAUCUUUGGUACAUGGUAGGUGUUGUGA,0.71
AGGAAGAUACCAUUCAGGAACCUGGACCAGAGGUGGUAAUAAAAGGGCUGGGUCAUUGGGCCUGCAGCAGCAUCUGCCCAGAUGCAUCCAAGAACUUGUUAACCCUCCCU,0.281
UUCUUCCCAUGCCCUGCCUCAGUAUCCCCAGAACUUGUGGCAGACAUUCACAGGUGCACGCAUAUAUGUGUGUCGCCCCCACCCCCGCCAUGGCAUUUCAUGAUAUGUGA,0.386
UCUGUCACUAUGCUCUCUUGCCUUCAGACAGACCAUUCUGAAUUCUCUAAAGGGAAAGGGCUUUUGCAUCUAAUCACAAUAGAGUUGAAAGAGAGGCCUUAGGAUUCUCC,0.267
CUAAGUUGCAGGAACAGGAUGAAAAUUCUUUAUUACCCUCUUCAACUUUUAGGACGAGCACUUGGGAGUGUGAGGCCUUCCUGGCUGCUUCUAUGUAGUCCUACCACCUG,0.281
GUUAACAUGUCAGCUGGCCCUCCAGGCCCCCGCCCCCAUCCCGUCCACGUUGCUGUGUCGUGAGGUGCAGCGGGUCACCCUGUGGCCCGUCCUGUGACCCAUAUUUAGCC,0.24

# Single results of other studies
Molecule,target,test,system,setting,how to read,quantity,result
"PhoQ, residues 284 288 289 292 302 303 SSTMSV","PhoP, residues 12 14 15 18 19 LHSVQ (Escherichia coli, UniProt P23836)","Sort-seq, item: YFP reporter",E. coli,"PhoQ-PhoP variant library, added: 10 µM Mg2+","baseline: high Mg2+ state, higher = stronger signaling",fold induction,1.26

# A few entries again (block 1):
Strand,E-score
CCAGAGCA,-0.126
AATGGATG,-0.169
TGGAATAA,-0.1
GGGCCGGA,0.0268
